Measured values of several laboratories.
Each numbered part is a random draw from the data of one study; scales do not carry over between parts.

Study 1 — technique: RNA Bind-n-Seq; form: RNA; matrix: in vitro; tested at: 365 nM; reference: no-protein control; reading: higher = stronger binding
Target: RNA binding protein fox-1 homolog 2, RRM domain, GST-SBP tag (RBFOX2, Homo sapiens, UniProt O43251-10, residues 100-194)
Notes: natural RNA segment, single round, ends assumed
Residues (chain): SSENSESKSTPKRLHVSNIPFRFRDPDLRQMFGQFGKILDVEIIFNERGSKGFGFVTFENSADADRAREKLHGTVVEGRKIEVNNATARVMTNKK
Sequence	RBNS enrichment (R)
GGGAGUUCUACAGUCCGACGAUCCAAAGCCUCUCCAGCUAGCUGGGGCUCCUCCCCCUUCUGAGAGACUUGCGCUCCCGCAGGGAACACACAGGCCUCCUUGGGGGCGGGGGACCAUAUUUCACAGAGCAAUGUGGAAUUCUCGGGUGCCAA	0.199
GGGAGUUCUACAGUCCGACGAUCGAAAGAAGGUUGCCGCCUCGACUGCUUACCUUUGGAGAAAACCUGGAGUGGACUUCAGUGGGCAUUCGUGCUAAGUCACCCUCAUCGGUAAAAUACUGCAAAGAACUAACUGGAAUUCUCGGGUGCCAA	0.251
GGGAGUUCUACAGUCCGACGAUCCGGCACUUUCUUAAUUAUGAGUAUUGAAAGGUGCUGUUUUCAGUCUCCACAUGUCUGCUGACAAGUUAAAGAAUCUAGCAUAUCGCAUUUGGUUUUACUUGUUGAUUUUGUGGAAUUCUCGGGUGCCAA	0.777
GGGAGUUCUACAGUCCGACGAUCUGUUCUGGGUGGGGCUUUGCCUCUCCACUGGGAAACUGACUUUUGCUGGGUUGAACAGAGUCCCUUAUGCUUUUUGUCCUCUCCCUGCGCCUGGGAGAGGUGGGAGUAGGUGGAAUUCUCGGGUGCCAA	0.26
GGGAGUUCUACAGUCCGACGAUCACAUCACAGUUCUUCCUUUUAACUCUAGUGACCCGGGGUCCGAGUUGCCCCUAUGCUUCCAGGGCAAUUUGGAGCAGACAGACCAGUGGGGGGUGGGGAACCUCCUUCCAUGGAAUUCUCGGGUGCCAA	0.365
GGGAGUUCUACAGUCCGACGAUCGCUGUUGUUUGUUUCAUAAUUGGAUCAGUCCAUAGCUACCCACAUUGCACUGAGCUUGCCAGUGGUGACUGCCAGGAACGCCUAGGAUCCACUUUGGUGGCUGUUGUUGCUGGAAUUCUCGGGUGCCAA	0.673
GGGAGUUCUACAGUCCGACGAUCUCUGUGUCUCCUAGAAGCCUGACAGAGACCCCCAGGGCAGUGGGUGGGUGGCGGGCUAGAGACCCUUGCCUGUGUCCGGGACCCUGGCGCCGCUCUCCCCUCCUGUGGAUUGGAAUUCUCGGGUGCCAA	1.85
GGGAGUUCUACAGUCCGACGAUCAAAUAGCUGUUAGACACCUUUGAUUCUUUGCUGCUCUCUGGUUAUGUAUGUGUGUUGUGCAUCUUCCUUGUUGUUUUAGAGUUUCCUAAAUUUUUUGCUUCUGGGGACUUUGGAAUUCUCGGGUGCCAA	2.32
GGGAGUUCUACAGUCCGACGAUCGGCCGGGCAAGCCAGAUUAGGCUUUGCUCCCAUACUCAGACAGUGCUGCAGAGCUGUGCCUCGCUGUGGAAAGCCCCAGCCCCACACAGAGAGCAAACAGUGAGAUAACAUGGAAUUCUCGGGUGCCAA	0.24
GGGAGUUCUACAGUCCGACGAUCGGCUGACAAAUUAGUCAUUGCUUAAACACAGUUCAUGCAGAUUAAACACAAAUCAAGUUCCAAAUUUCAUUGGACUCCACUUGAAGACCAUGAGAAAAUAGCUUGGUCUGUGGAAUUCUCGGGUGCCAA	0.291
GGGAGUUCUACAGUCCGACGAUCCUUGUUUGAGACUGGGCUGCAGGCCCCAGGAAGACUUUCCUUCACCCACCAUCCCCCUAACCUCGGCAGGGCUUCUGUCCUGUGGAGUUCCCUGGACACCUUGGUCUGGCUGGAAUUCUCGGGUGCCAA	0.375
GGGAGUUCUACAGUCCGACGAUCUAUGCUGUUUCCAAAAGGCCAAAUAAACCAGGAUUUUCUCUGGAUGCUUGGAGAAAGAAGAAACCCUAUUCUUGUUUUAGUAUCUUGAUCUCAUUAGUUUAUAGGCGUUGUGGAAUUCUCGGGUGCCAA	0.472

Study 2 — technique: protein binding microarray; form: double-stranded DNA, one strand shown; matrix: in vitro; tested at: not given; reference: not given; reading: higher = stronger binding
Target: Histone acetyltransferase KAT6A, both winged helices, GST fusion (KAT6A, Homo sapiens, UniProt Q92794, residues 1-181)
Notes: 8-mer, flanks averaged, mean of 2 arrays, mostly near background
Construct (chain): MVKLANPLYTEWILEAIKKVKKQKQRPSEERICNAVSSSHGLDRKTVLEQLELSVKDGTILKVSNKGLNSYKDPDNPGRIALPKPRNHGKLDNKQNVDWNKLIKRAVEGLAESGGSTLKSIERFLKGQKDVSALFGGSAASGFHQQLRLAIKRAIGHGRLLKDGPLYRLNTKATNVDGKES
Sequence	E-score
ATGTCCTC	-0.228
TCCAGTAA	-0.0834
ACTATTCC	0.0642
GAGAGCCA	-0.0947
CTAGAATC	-0.156
ACCTTACG	0.165
AGTCTCTC	-0.128
CCGTGCCC	0.175
CACCACGA	-0.167
GTTGTAGA	-0.117
GACCACGA	-0.18
ACCCATGA	-0.243
CGCAAAGC	0.221
TAGATCTA	-0.0247
AGTCGAAG	-0.0901
TGTCCACA	-0.142
GATAGGGA	-0.187
GGTAATGA	0.0181
CGTTGTTC	0.163

Study 3 — technique: aptamer microarray, sandwich; form: DNA with 2'F-ANA; matrix: in vitro; tested at: 200 nM; together with: Cy3 exosite-II aptamer, 400 nM; reading: higher = stronger binding; sequence: GGTTGGTGTGGTTGG
Target: Prothrombin, mature alpha-thrombin (F2, Homo sapiens, UniProt P00734)
Notes: whole 15-mer aptamer, many near background
Modification	mean fluorescence intensity
2'F-ANA at 2 3 4 7 9 10 11 12	290 a.u.
2'F-ANA at 2 3 4 6 7 8 10 11 13	177 a.u.
2'F-ANA at 2 3 5 6 9 10 12 13	52.4 a.u.
2'F-ANA at 1 4 6 8 12 14 15	62 a.u.
2'F-ANA at 1 10 12 13 14	45.7 a.u.
2'F-ANA at 1 2 6 8 9 10 11 15	56.5 a.u.
2'F-ANA at 2 3 7 8 9 11 13 15	642 a.u.
2'F-ANA at 3 5 6 7 8 11 14 15	54.5 a.u.
2'F-ANA at 1 3 10 12 15	134 a.u.
2'F-ANA at 2 3 4 7 11 12 14 15	349 a.u.
2'F-ANA at 1 2 4 6 7 8 9 12 14	64.7 a.u.
2'F-ANA at 1 4 7 9 10 11 14 15	48.2 a.u.
2'F-ANA at 1 2 5 8 9 10 11 12 14 15	60.7 a.u.
2'F-ANA at 2 5 6 8	78.9 a.u.
2'F-ANA at 1 2 6 10	53.1 a.u.
2'F-ANA at 2 4 5 6 7 9 10 12 14	47.9 a.u.
2'F-ANA at 4 7 9 10 11 15	82.6 a.u.
2'F-ANA at 2 4 6 7 10 12 13 15	94.5 a.u.
2'F-ANA at 1 2 3 6 7 8 9 13 14	70.6 a.u.
2'F-ANA at 1 2 3 8 9 11 12 13	357 a.u.
2'F-ANA at 2 3 4 5 9 10 11 14	53.3 a.u.
2'F-ANA at 2 6 8 10	119 a.u.
2'F-ANA at 1 2 4 5 6 7 8 11 12 13	75.1 a.u.

Study 4 — technique: RNA Bind-n-Seq; form: RNA; matrix: in vitro; tested at: 20 nM; notes: 6-mer, flanks averaged, single round; together with: 150 mM LiCl; reference: input library; reading: higher = stronger binding
Target: TAR DNA-binding protein 43, full length, His tag (TARDBP, Homo sapiens, UniProt Q13148, residues 1-414)
Sequence	6-mer enrichment (R)
CGAUAA	0.821
UGGCUA	0.93
UAUGGU	1.21
CUACUU	0.91
GUUCUC	0.892
ACAAGA	0.84
GAUAUG	1.01
ACGUAG	0.898
GGAGUA	1.06
AAAUGC	0.896
AUACGA	0.79
AUGCUG	0.988
GCCGAA	0.866
UUUUUC	1.39
CUUUUA	1.12
CAAGUU	0.9

Some of these lines once more (study 4):
Sequence	6-mer enrichment (R)
GCCGAA	0.866
AAAUGC	0.896
AUACGA	0.79
UGGCUA	0.93
ACGUAG	0.898
UUUUUC	1.39
AUGCUG	0.988
CUACUU	0.91
